Results of several laboratories.
Protocols differ between the studies behind these lines. ± gives the spread as reported.
CTSB: Cathepsin B (CTSB, Homo sapiens, UniProt P07858)

SMILES | tested on | test | system | conditions | quantity | result
CCCNC(=O)[C@H]1O[C@@H]1C(=O)N[C@H](C(=O)N1CCC[C@H]1C(=O)OCC1=C2C(C)=CC(C)=[N+]2[B-](C)(C)n2c(C)cc(C)c21)[C@@H](C)CC | CTSB | irreversible inactivation, inhibitor | – | concentration not given, pH 5.5, 25 °C, in dark, together with: Z-Arg-Arg-AMC | Ki | 320 ± 3000 µM
CC[C@H](C)[C@H](NC(=O)[C@@H]1CCCN1C(=O)CNC(=O)[C@H](CC(N)=O)NC(=O)CNC(=O)[C@H](CC(=O)O)NC(=O)[C@@H]1CCC(=O)O[C@H](C)[C@H](NC(=O)[C@@H](NC(=O)[C@H](Cc2ccccc2)NC(=O)[C@@H](NC(=O)[C@H](CCCCN)NC(=O)CNC(=O)[C@H](CC(=O)O)NC(=O)CNC(=O)[C@@H](NC(=O)CNC(=O)[C@H](CC(=O)O)NC(=O)[C@@H]2CCC(=O)O[C@H](C)[C@H](NC(=O)[C@@H](NC(=O)[C@H](CC(C)C)NC(=O)[C@H](CCCCN)NC(=O)[C@H](Cc3ccccc3)NC(=O)[C@H](CC(=O)O)NC(=O)CNC(=O)[C@H](CCCCN)NC(=O)[C@H](CC(C)C)NC(=O)[C@H](CO)NC(=O)CN)C(C)C)C(=O)N[C@@H](CCSC)C(=O)N[C@@H](CCCCN)C(=O)N[C@@H](C(C)C)C(=O)N3CCC[C@H]3C(=O)N2)C(C)C)C(C)C)[C@@H](C)O)C(=O)N[C@@H](C)C(=O)N[C@@H](CC(C)C)C(=O)NCC(=O)N1)C(=O)N[C@@H](Cc1ccc(O)cc1)C(=O)N[C@@H]1C(=O)N[C@@H]2C(=O)N[C@@H](CCC(N)=O)C(=O)N[C@@H](C)C(=O)N[C@@H](C(C)C)C(=O)NCC(=O)N[C@@H](CCC(=O)O[C@@H]2C)C(=O)N[C@H](C(=O)NCC(=O)NCC(=O)N[C@@H](CC(=O)O)C(=O)N[C@@H](CC(C)C)C(=O)N2CCC[C@H]2C(=O)N2CCC[C@H]2C(=O)N[C@@H](CC(C)C)C(=O)N[C@@H](Cc2ccccc2)C(=O)O)CCC(=O)O[C@@H]1C | CTSB | enzyme activity, inhibitor | – | – | IC50 | > 200 µM
CCCNC(=O)[C@H]1O[C@@H]1C(=O)N[C@H](C(=O)N1CCC[C@H]1C(=O)OCC1=C2C(C)=CC(C)=[N+]2[B-](CC)(CC)n2c(C)cc(C)c21)[C@@H](C)CC | CTSB | irreversible inactivation, inhibitor | – | concentration not given, pH 5.5, 25 °C, in dark, together with: Z-Arg-Arg-AMC | Ki | 350 ± 2000 µM
CC[C@H](C)[C@H](NC(=O)[C@@H]1CCCN1C(=O)CNC(=O)[C@H](CC(N)=O)NC(=O)CNC(=O)[C@@H]1CC(=O)O[C@H](C)[C@H](NC(=O)[C@H](Cc2ccccc2)NC(=O)[C@@H](NC(=O)[C@H](CCCCN)NC(=O)CNC(=O)[C@H](CC(=O)O)NC(=O)CNC(=O)[C@@H](NC(=O)CNC(=O)[C@H](CC(=O)O)NC(=O)[C@@H]2CCC(=O)O[C@H](C)[C@H](NC(=O)[C@@H](NC(=O)[C@H](CC(C)C)NC(=O)[C@H](CCCCN)NC(=O)[C@H](Cc3ccccc3)NC(=O)[C@H](CC(=O)O)NC(=O)CNC(=O)[C@H](CCCCN)NC(=O)[C@H](CC(C)C)NC(=O)[C@H](CO)NC(=O)CN)C(C)C)C(=O)N[C@@H](CCSC)C(=O)N[C@@H](CCCCN)C(=O)N[C@@H](C(C)C)C(=O)N3CCC[C@H]3C(=O)N2)C(C)C)C(C)C)C(=O)N[C@@H]2C(=O)N[C@@H](C)C(=O)N[C@@H](CC(C)C)C(=O)NCC(=O)N[C@@H](CCC(=O)O[C@@H]2C)C(=O)N1)C(=O)N[C@@H](Cc1ccc(O)cc1)C(=O)N[C@@H]1C(=O)N[C@@H]2C(=O)N[C@@H](CCC(N)=O)C(=O)N[C@@H](C)C(=O)N[C@@H](C(C)C)C(=O)NCC(=O)N[C@@H](CCC(=O)O[C@@H]2C)C(=O)N[C@H](C(=O)NCC(=O)NCC(=O)N[C@@H](CC(=O)O)C(=O)N[C@@H](CC(C)C)C(=O)N2CCC[C@H]2C(=O)N2CCC[C@H]2C(=O)N[C@@H](CC(C)C)C(=O)N[C@@H](Cc2ccccc2)C(=O)O)CCC(=O)O[C@@H]1C | CTSB | enzyme activity, inhibitor | – | – | IC50 | > 200 µM
CC(C)C[C@H](NC(=O)[C@H]1O[C@@H]1C(=O)O)C(=O)NCCCCN=C(N)N | CTSB | enzyme activity, inhibitor | – | – | IC50 | 0.015 µM
O=C1NC2(CC2)COc2ncc(F)cc2[C@H]2COCCN2c2ccn3ncc1c3n2 | – | – | Sprague-Dawley rat, male, blood | oral, 2.5 mg/kg/day, 4 weeks, end of recovery, subacute toxicity | haemoglobin | 140 ± 3 g/L
CCC(C(=O)Nc1ccccc1C)n1cccc2nc(SCc3ccc(F)cc3)nc1-2 (stereo not shown) | CTSB | enzyme activity, inhibitor | – | – | IC50 | > 100 µM
CC(C)CC(C(=O)N1CC2(CC1C#N)C(=O)Nc1ccccc12)N(C)C(=O)c1cc2c(F)cc(F)c(F)c2[nH]1 (stereo not shown) | CTSB | enzyme activity, inhibitor | – | – | IC50 | > 100 µM
CCC(C(=O)Nc1ccccc1C)n1c(SCc2ccc(F)cc2)nc2ncccc21 (stereo not shown) | CTSB | enzyme activity, inhibitor | – | – | IC50 | > 100 µM
CNC(=O)C[C@H](Cc1ccc(F)cc1)NC(=O)[C@@H](Cc1ccc(Cl)cc1Cl)NC(=O)[C@H](N)Cc1ccccc1C#N | CTSB | enzyme activity, inhibitor | human liver | – | IC50 | > 10 µM

Repeated from above:
SMILES | tested on | test | system | conditions | quantity | result
CC(C)CC(C(=O)N1CC2(CC1C#N)C(=O)Nc1ccccc12)N(C)C(=O)c1cc2c(F)cc(F)c(F)c2[nH]1 (stereo not shown) | CTSB | enzyme activity, inhibitor | – | – | IC50 | > 100 µM
